Measured values gathered from unrelated publications.
Every numbered part comes from another study and shows a few of its results, in no order. Changes are numbered by the printed parent chain.

Study 1 — target: UBE2V1 UBC core domain (UniProt Q13404); method: yeast two-hybrid; medium: yeast; notes: mostly zero background; baseline: not given; reading: higher = stronger interaction
B1: VPS41 RING domain (UniProt P49754); chain KGVLVDEENICESCLSPILPSDAAKPFSVVVFHCRHMFHKECLPMPSMNSAAQFCNICSAKNRGPGSAI
B2: TRIM13 RING domain (UniProt O60858); chain MELLEEDLTCPICCSLFDDPRVLPCSHNFCKKCLEGILEGSVRNSLWRPAPFKCPTCRKETSATGINS
B3: TRIM24 RING domain (UniProt O15164); chain EAARLNLLDTCAVCHQNIQSRAPKLLPCLHSFCQRCLPAPQRYLMLPAPMLGSAETPPPVPAPGSPVSGSSPFATQVGVIRCPVCSQECAERHII
B4: RNF208 RING domain (UniProt Q9H0X6); chain SSAAAGEPLECPTCGHSYNVTQRRPRVLSCLHSVCEQCLQILYESCPKYKFISCPTCRRETVLFTDYG
B5: RC3H1 RING domain (UniProt Q5TC82); chain QAPQWTDFLSCPICTQTFDETIRKPISLGCGHTVCKMCLNKLHRKACPFDQTTINTDIELL
B6: TRIM4 RING domain (UniProt Q9C037); chain EAEDIQEELTCPICLDYFQDPVSIECGHNFCRGCLHRNWAPGGGPFPCPECRHPSAPAALRP
B7: TRIML1 RING domain (UniProt Q8N9V2); chain LMENLREELTCFICLDYFSSPVTTECGHSFCLVCLLRSWEEHNTPLSCPECWRTLEGPHFQS
B8: TRAF5 RING domain (UniProt O00463); chain FVERLEERYKCAFCHSVLHNPHQTGCGHRFCQHCILSLRELNTVPICPVDKEVIKSQEVFK
B9: TRIM40 RING domain (UniProt Q6P9F5); chain LQKDNQEEGVCPICQESLKEAVSTNCGHLFCRVCLTQHVEKASASGVFCCPLCRKPCSEEVLG
Construct (chain): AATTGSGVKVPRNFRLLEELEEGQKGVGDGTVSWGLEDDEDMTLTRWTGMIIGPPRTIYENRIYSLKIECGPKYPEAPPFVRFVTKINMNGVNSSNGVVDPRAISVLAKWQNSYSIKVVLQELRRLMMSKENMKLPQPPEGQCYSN
Molecule	lacZ reporter activity
B1 (VPS41 RING domain)	0
DHGAVGQEMCCPICCSEYVKGEVATELPCHHYFHKPCVSIWLQKSGTCPVCRCMFPPPL (PJA1 RING domain (UniProt Q8NG27))	0
B2 (TRIM13 RING domain)	0
PAELEVQASECVVCLEREAQMIFLNCGHVCCCQQCCQPLRTCPLCRQDIAQRLRIY (LRSAM1 RING domain (UniProt Q6UWE0))	0
B3 (TRIM24 RING domain)	0
MPIRALCTICSDFFDHSRDVAAIHCGHTFHLQCLIQWFETAPSRTCPQCRIQVGKRTIIN (TRAIP RING domain (UniProt Q9BWF2))	0
QVDKAVFHMQSVKCLKCQEQKRAVLPCQHAALCELCAEGSECPICQPGRAHTLQS (UNK RING domain (UniProt Q9C0B0))	0
B4 (RNF208 RING domain)	0
B5 (RC3H1 RING domain)	0
B6 (TRIM4 RING domain)	0
B7 (TRIML1 RING domain)	0
FQGDVDEDLICPICSGVLEEPVQAPHCEHAFCNACITQWFSQQQTCPVDRSVVTVAHLRP (RNF41 RING domain (UniProt Q9H4P4))	0
B8 (TRAF5 RING domain)	0
B9 (TRIM40 RING domain)	0

Study 2 — method: aptamer microarray, sandwich; form: DNA with 2'F-ANA; medium: in vitro; tested at: 200 nM; together with: Cy3 exosite-II aptamer, 400 nM; reading: higher = stronger binding; oligonucleotide: GGTTGGTGTGGTTGG
Target: Prothrombin, mature alpha-thrombin (F2, Homo sapiens, UniProt P00734)
Notes: whole 15-mer aptamer, many near background
Modification	mean fluorescence intensity [a.u.]
2'F-ANA at 1 2 3 5 6 11 12 15	89.4
2'F-ANA at 1 2 5 6 10 13 14 15	67.2
2'F-ANA at 1 3 5 6 8 9 10 13	45.7
2'F-ANA at 2 4 8 9 12	640
2'F-ANA at 3 4 7 11 13	635
2'F-ANA at 1 5 6 9 11 12	90.6
2'F-ANA at 1 4 5 7 8 9 11 12 13 14 15	47.2
2'F-ANA at 2 5 6 7 8 9 11 12 14 15	51.2
2'F-ANA at 2 4 7 9 11 12 14	109
2'F-ANA at 1 2 3 4 6 14	60.8
2'F-ANA at 3 4 5	104
2'F-ANA at 5 6 9 10 12 15	55.2
2'F-ANA at 1 3 4 6 9 11 12 13 14	68.9
2'F-ANA at 3 6 8 12 13	1250
2'F-ANA at 1 2 7 11 12	325
2'F-ANA at 4 5 6 7 8 9 12 15	134
2'F-ANA at 3 8 11 14	642
2'F-ANA at 2 4 6 9	362
2'F-ANA at 1 3 7 10 11 12 15	124
2'F-ANA at 1 2 3 4 6 8 9 10 15	69
2'F-ANA at 1 3 5 8 10	57.9
2'F-ANA at 4 8 9 10 14	63.4
2'F-ANA at 1 3 11 13 15	292
2'F-ANA at 1 8 9 10 11 12 15	65.8
2'F-ANA at 1 3 4 5 8 10 11 14	50.6

Study 3 — method: DHFR PCA, deep sequencing; medium: yeast; together with: (+)-ABA 1.4 µM; baseline: wild-type fitted maximum; reading: higher = stronger binding
Target: ABI1, truncated, D143A, DHFR fusion (Arabidopsis thaliana)
Notes: methotrexate growth selection, single substitutions
Starting sequence: PYL1, truncated, DHFR fusion (Arabidopsis thaliana); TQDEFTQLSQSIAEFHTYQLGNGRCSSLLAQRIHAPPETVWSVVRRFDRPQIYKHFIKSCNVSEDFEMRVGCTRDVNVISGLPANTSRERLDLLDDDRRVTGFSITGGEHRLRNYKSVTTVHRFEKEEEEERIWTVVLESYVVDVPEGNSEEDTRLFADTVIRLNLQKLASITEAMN; partner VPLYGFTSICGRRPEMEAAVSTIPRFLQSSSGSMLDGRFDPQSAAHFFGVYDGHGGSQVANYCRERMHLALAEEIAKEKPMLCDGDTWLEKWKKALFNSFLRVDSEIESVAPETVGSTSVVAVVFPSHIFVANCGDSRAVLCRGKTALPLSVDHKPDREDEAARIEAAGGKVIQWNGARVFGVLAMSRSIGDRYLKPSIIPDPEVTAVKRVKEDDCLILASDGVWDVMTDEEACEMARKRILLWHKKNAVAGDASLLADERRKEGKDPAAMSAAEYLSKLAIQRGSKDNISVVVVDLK
Substitution	relative binding score [%]
E14V	14.6
D159H	-14.4
L138P	-3.65
R132H	73.2
L28Y	-0.764
E127A	62.7
E139H	12.3
S42Q	57.6
N149M	33.2
L164Y	33.9
S9H	69.9
S9Y	41.1
G21V	58.1

Study 4 — target: CCND3, cyclin fold, Cln2 fusion (human); method: yeast growth competition, sequencing; medium: yeast; notes: weak parent motif; baseline: not given; reading: higher = stronger binding
Starting sequence: PKMYT1 docking peptide (human); SFEPRNLLSLFED
Substitution	normalised enrichment score
SFEPDNLLSLFED [R5D]	0.115
SFEPTNLLSLFED [R5T]	0.0854
LFEPRNLLSLFED [S1L]	0.126
AFEPRNLLSLFED [S1A]	0.0892
SFEPRNPLSLFED [L7P]	0.00188
SFEPRNLLSLFEK [D13K]	0.0772
SFKPRNLLSLFED [E3K]	0.101
SFEPRNLLSLFSD [E12S]	0.0573
SMEPRNLLSLFED [F2M]	0.103
SFEPRNLLSLDED [F11D]	0.0909
SFEPRNLLSLCED [F11C]	0.0397
SFEPRNYLSLFED [L7Y]	0.082
SFCPRNLLSLFED [E3C]	0.0666
SFEPRNLLSLFEE [D13E]	0.0916
SFEPRNLLSRFED [L10R]	0.154
SFEPRYLLSLFED [N6Y]	0.075
SFEPRNLLLLFED [S9L]	0.0919
SFEPRNLLSLFHD [E12H]	0.0907

Excerpt of the above (study 4):
Substitution	normalised enrichment score
SMEPRNLLSLFED [F2M]	0.103
LFEPRNLLSLFED [S1L]	0.126
SFEPRNYLSLFED [L7Y]	0.082
SFEPDNLLSLFED [R5D]	0.115
SFEPRNLLSLCED [F11C]	0.0397
SFEPRNLLSRFED [L10R]	0.154
